Values quoted from earlier work, collected from citations in different studies.
Compare with care: the assays were run in different laboratories. ± marks the error that the study gave. The star is where a group is joined.

Molecule | target | test | system | setting | how to read | endpoint | result
O=c1c2nc(Br)n([C@@H]3O[C@@H]4CO[P@@](O)(=S)O[C@H]4[C@H]3O)c2nc2[nH]c(-c3ccccc3)cn12 | PDE10 | cyclic nucleotide hydrolysis, substrate or inhibitor, isothermal titration calorimetry |  |  |  | Km or Ki | 4.98 µM
Oc1c(Cl)c(Cl)c(Cl)c(Cl)c1Cl | pentachlorophenol 4-monooxygenase Sphingobium chlorophenolicum | substrate, measured: tetrachlorohydroquinone |  | 2 min |  | kcat | 17 ± 5 s⁻¹
Nc1ncnc2c1nc(Br)n2C1OC2COP(O)(=S)OC2C1O (stereo not drawn) | PDE1C | cyclic nucleotide hydrolysis, substrate or inhibitor, isothermal titration calorimetry |  |  |  | Km or Ki | 37.7 µM
N=C(N)NCCC[C@@H]1NC(=O)[C@H](CCCNC(=N)N)NC(=O)[C@H](NC(=O)[C@H](Cc2ccccc2)NC(=O)CNC(=O)CNC(=O)[C@H](Cc2ccc(O)cc2)NCc2ccccc2)CC(=O)NC[C@@H](C(=O)N[C@@H](CCCNC(=N)N)C(=O)N2CCC[C@H]2C(=O)N[C@@H](CCCCN)C(N)=O)NC1=O | Oprk1 (Rattus norvegicus, UniProt P34975) | antagonist | animal, systemic | dose not given |  | duration of action | 12 to 18 h
O=[P@]1(S)OC[C@H]2O[C@@H](n3cnc4cc(Cl)c(Cl)cc43)[C@H](O)[C@@H]2O1 | PDE1A | cyclic nucleotide hydrolysis, substrate or inhibitor, isothermal titration calorimetry |  |  |  | Km or Ki | 89.6 µM
tetrahydrofolate | serine hydroxymethyltransferase, Leishmania donovani | substrate |  |  |  | Km | 2400 µM
COC1=CC(=O)O[C@@H](/C=C/c2ccccc2)C1 | NF-κB | reporter gene and DNA binding, inhibitor |  | added: TNFα |  | effective concentration | 870 µM
Nc1ncnc2c1ncn2[C@@H]1O[C@H](COP(=O)(O)OP(=O)(O)OP(=O)(O)O)[C@@H](O)[C@H]1O | HCV NS3 helicase | NTP hydrolysis |  | no RNA or metal ions |  | kcat | ~0.3 s⁻¹
Cc1cc(Nc2ncc(Cl)c(Nc3ccccc3S(=O)(=O)C(C)C)n2)c(OC(C)C)cc1C1CCNCC1 | IGF-1 receptor |  |  |  | baseline: IGF-1R IC50 over ALK IC50 | selectivity ratio | 50
N[C@@H](CO)C(=O)O | serine hydroxymethyltransferase, Plasmodium chabaudi | substrate |  |  |  | Km | 1100 µM
Cc1cccc(C(=O)C(F)(F)F)c1 | ACHE (Homo sapiens, UniProt P22303) |  |  |  |  | binding free energy | -49.4 kJ/mol
CC(C)(C)OC(=O)c1cc2c(cn1)[nH]c1ccccc12 | GABAA receptor α2β3γ2 | modulator, two-electrode voltage clamp | Xenopus oocytes | 1 to 10 µM, added: GABA at EC50 | baseline: GABA response | efficacy | 99 ± 10%
C[N+](C)(C)CCOC(N)=O | acetylcholinesterase |  |  | concentration not given, added: acetylthiocholine reporter substrate |  | Km | 2800 ± 200 µM
O=C1CC(=O)N(C2CCCC2)C(=O)N1CCc1cccc(Cl)c1 | Voltage-dependent L-type calcium channel subunit alpha-1D (Rattus norvegicus, UniProt P27732) |  |  |  | baseline: IC50 CaV1.2 over IC50 CaV1.3 | selectivity ratio | > 100
CCCCC/C=C\C/C=C\C/C=C\C/C=C\CCCC(=O)NCCO | CNR2 (Homo sapiens, UniProt P34972) |  |  | concentration not given, F197V mutant | baseline: wild type | binding affinity change | no effect
COC1C2OP(O)(=S)OCC2OC1n1c(Sc2ccc(Cl)cc2)nc2c(N)ncnc21 (stereo not drawn) | PDE1C | cyclic nucleotide hydrolysis, substrate or inhibitor, isothermal titration calorimetry |  |  |  | Km or Ki | 17.2 µM
CN(C)C/C=C/C(=O)Nc1cccc(C(=O)Nc2ccc(Nc3nccc(-c4cccnc4)n3)cc2)c1 | IRAK1 kinase (via Pellino E3 ligase activity) | Pellino E3 ligase activity, inhibitor | cells | added: interleukin-1 stimulation |  | concentration for complete inhibition | 10 µM
Boc-Gly-Lys-Arg-{AMC} (Boc-Gly-Lys-Arg-AMC; Boc = CC(C)(C)OC(=O)*; AMC = Cc1cc(=O)oc2cc(N*)ccc12) | West Nile virus NS2B-NS3 protease | substrate |  | tripeptide substrate |  | Km | 737 ± 150 µM
O=[N+]([O-])[O-].[Ag+] | Na+/K+-ATPase, gill | enzyme activity | rainbow trout, freshwater | 10 µg/L, 48 h |  | inhibition | 85%
COc1ccccc1N1CCN(CCN(C(=O)C2CCC(CF)CC2)c2ccccn2)CC1 (stereo not drawn) | Htr1a (Mus musculus, UniProt Q64264) |  | mouse | 90 min |  | hippocampus to cerebellum PET ratio | 3
Cc1cc(O)cc(C)c1C[C@H](N)C(=O)N[C@@H]1CCNc2ccc(Cc3cccc4ccccc34)cc21 | Oprd1 (Rattus norvegicus, UniProt P33533) | agonist |  | 10 µM | baseline: DPDPE | stimulation | 15%
